Results collected from several papers.
Each numbered part is a random draw from the data of one study; scales do not carry over between parts. Positions count from the first letter of the parent shown.
UniProt Q9UBX1, sequence (whole entry, looked up): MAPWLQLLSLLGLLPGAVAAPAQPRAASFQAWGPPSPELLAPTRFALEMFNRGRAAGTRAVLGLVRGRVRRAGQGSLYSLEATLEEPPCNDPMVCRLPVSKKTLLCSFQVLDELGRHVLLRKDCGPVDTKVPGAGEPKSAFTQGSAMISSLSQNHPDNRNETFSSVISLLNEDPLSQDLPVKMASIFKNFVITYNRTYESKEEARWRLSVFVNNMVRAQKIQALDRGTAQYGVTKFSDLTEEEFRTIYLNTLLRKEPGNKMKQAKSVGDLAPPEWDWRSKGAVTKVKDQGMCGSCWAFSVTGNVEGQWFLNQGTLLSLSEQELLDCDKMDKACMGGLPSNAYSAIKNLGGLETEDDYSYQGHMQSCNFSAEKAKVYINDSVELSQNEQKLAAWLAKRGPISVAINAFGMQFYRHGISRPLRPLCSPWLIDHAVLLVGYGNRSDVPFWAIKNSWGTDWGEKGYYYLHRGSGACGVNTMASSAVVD

Sample 1
Target: HLA class I histocompatibility antigen, A alpha chain, allele A*25:01 (Homo sapiens, UniProt P04439)
Effect on: peptide-MHC binding
Form: peptide
Tested at: concentration not given
`FTGWRDPGL`: binding “inactive”.
`DWMDRIEEF` — result for binding: “inactive”.
`YQVEGATRV` — result for binding: “inactive”.
`RLAPEPVYT` — result for binding: “inactive”.
Under binding, `GQFLSFASL` is recorded as “inactive”.
`LNWFEIWIV` — result for binding: “inactive”.
For `YLQYSISTA`, binding read “inactive”.
`YLDNVGVHI` — result for binding: “inactive”.
`GFPFFIMPK` — result for binding: “inactive”.
`CLVSGLSSL` — result for binding: “inactive”.

Sample 2
Target: UBE2D2 UBC core domain (UniProt P62837)
UniProt P62837, sequence (whole entry, looked up): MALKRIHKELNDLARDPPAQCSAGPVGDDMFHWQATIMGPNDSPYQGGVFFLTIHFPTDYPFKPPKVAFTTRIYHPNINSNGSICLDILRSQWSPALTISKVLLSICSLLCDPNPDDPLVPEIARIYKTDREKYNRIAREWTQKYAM
Method: yeast two-hybrid
Medium: yeast
Setting: mostly zero background
Reference: not given
Direction: higher = stronger interaction
B1: RLIM RING domain (UniProt Q9NVW2); chain SFGENDALKTCSVCITEYTEGNKLRKLPCSHEYHVHCIDRWLSENSTCPICRRAVLASGNRE
B2: RNF166 RING domain (UniProt Q96A37); chain GDSGLEAQYTCPICLEVYHRPVAIGSCGHTFCGECLQPCLQVPSPLCPLCRLPFDPKKVDK
B3: MYCBP2 RING domain (UniProt O75592); chain TSLKQDADDMCMICFTEALSAAPAIQLDCSHIFHLQCCRRVLENRWLGPRITFGFISCPICKNKINHIVLKD
B4: TRIM26 RING domain (UniProt Q12899); chain PLRSLEEEVTCSICLDYLRDPVTIDCGHVFCRSCTTDVRPISGSRPVCPLCKKPFKKENIRP
B5: MEX3B RING domain (UniProt Q6ZN04); chain SGLRRKGSRDCSVCFESEVIAALVPCGHNLFCMECANRICEKSEPECPVCHTAVTQAIRIF
B6: ANAPC11 RING domain (UniProt Q9NYG5); chain GICRMAFNGCCPDCKVPGDDCPLVWGQCSHCFHMHCILKWLHAQQVQQHCPMCRQEWKFKE
B7: TRIM37 RING domain (UniProt O94972); chain SVESIAEVFRCFICMEKLRDARLCPHCSKLCCFSCIRRWLTEQRAQCPHCRAPLQLRELVN
B8: TRIM22 RING domain (UniProt Q8IYM9); chain VKVDIEKEVTCPICLELLTEPLSLDCGHSFCQACITAKIKESVIISRGESSCPVCQTRFQPGNLRP
B9: TRIM54 RING domain (UniProt Q9BYV2); chain SMDNLEKQLICPICLEMFSKPVVILPCQHNLCRKCANDVFQASNPLWQSRGSTTVSSGGRFRCPSCRHEVVLDRHGV
B10: TRIM60 RING domain (UniProt Q495X7); chain ALVNLQEESSCPICLEYLKDPVTINCGHNFCRSCLSVSWKDLDDTFPCPVCRFCFPYKSFRR
For `B1 (RLIM RING domain)`, “lacZ reporter activity” read 0.
`B2 (RNF166 RING domain)` — result for “lacZ reporter activity”: 0.
For `B3 (MYCBP2 RING domain)`, “lacZ reporter activity” read 0.
For `AEADPLGRFTCPVCLEVYEKPVQVPCGHVFCSACLQECLKPKKPVCGVCRSALAPGVRAV (RNF114 RING domain (UniProt Q9Y508))`, “lacZ reporter activity” read 0.
`LDAASGHPLVCPLCHGQYERPCLLDCFHDFCTGCLRGRATDGRLSCPLCQHQTLVKGPSG (Rnf207 RING domain (UniProt Q3V3A7))`: “lacZ reporter activity” 0.
`B4 (TRIM26 RING domain)`: “lacZ reporter activity” 0.
Under “lacZ reporter activity”, `YCEMGSTFQLCKICAENDKDVKIEPCGHLMCTSCLTAWQESDGQGCPFCRCEIKGTEPII (CBLB RING domain (UniProt Q13191))` is recorded as 0.
Under “lacZ reporter activity”, `LGTKLEAKYLCSACRNVLRRPFQAQCGHRYCSFCLASILSSGPQNCAACVHEGIYEEGIS (TRAF2 RING domain (UniProt Q12933))` is recorded as 0.
`B5 (MEX3B RING domain)` — result for “lacZ reporter activity”: 0.
Under “lacZ reporter activity”, `YPEEVDDDLICHICLQALLDPLDTPCGHTYCTLCLTNFLVEKDFCPMDRKPLVLQHCKK (LNX1 RING domain (UniProt Q8TBB1))` is recorded as 0.
For `PEELAVNNDDCAICWDSMQAARKLPCGHLFHNSCLRSWLEQDTSCPTCRMSLNIADNNR (AMFR RING domain (UniProt Q9UKV5))`, “lacZ reporter activity” read 10200.
`B6 (ANAPC11 RING domain)`: “lacZ reporter activity” 0.
`B7 (TRIM37 RING domain)`: “lacZ reporter activity” 0.
`B8 (TRIM22 RING domain)`: “lacZ reporter activity” 0.
Under “lacZ reporter activity”, `B9 (TRIM54 RING domain)` is recorded as 0.
For `B10 (TRIM60 RING domain)`, “lacZ reporter activity” read 0.

Sample 3
Target: CCND3, cyclin fold, Cln2 fusion (human)
Method: yeast growth competition, sequencing
Medium: yeast
Setting: weak parent motif
Reference: not given
Direction: higher = stronger binding
Starting sequence: viral docking peptide; KGVKRKLFAEDSS
`KGVKRKFFAEDSS [L7F]`: “normalised enrichment score” 0.316.
For `KGVKRKLLAEDSS [F8L]`, “normalised enrichment score” read -0.0893.
`KGVKRKLFAEDQS [S12Q]`: “normalised enrichment score” -0.505.
Under “normalised enrichment score”, `KGVKRKLSAEDSS [F8S]` is recorded as -0.0375.
`KGVKRKLFAEDRS [S12R]`: “normalised enrichment score” 0.486.
For `KGVKNKLFAEDSS [R5N]`, “normalised enrichment score” read 0.149.
`KGVKRKLFARDSS [E10R]`: “normalised enrichment score” 0.0423.
For `KGVKRKLFAEDAS [S12A]`, “normalised enrichment score” read 0.276.
For `KGVKRFLFAEDSS [K6F]`, “normalised enrichment score” read -0.151.
Under “normalised enrichment score”, `KGVKHKLFAEDSS [R5H]` is recorded as 0.347.
`KGVKRKLFAKDSS [E10K]`: “normalised enrichment score” -0.053.
Under “normalised enrichment score”, `KGNKRKLFAEDSS [V3N]` is recorded as 0.454.
Under “normalised enrichment score”, `KGVKRKLFAEDGS [S12G]` is recorded as -0.133.
For `KGVKRKLFAADSS [E10A]`, “normalised enrichment score” read 0.185.
`KGKKRKLFAEDSS [V3K]` — result for “normalised enrichment score”: -0.0709.
For `KGVYRKLFAEDSS [K4Y]`, “normalised enrichment score” read -0.0904.
For `KGVKRKLFAEDWS [S12W]`, “normalised enrichment score” read -0.00904.
For `KGVKRKLFAEPSS [D11P]`, “normalised enrichment score” read 0.00325.
Under “normalised enrichment score”, `KGVKRHLFAEDSS [K6H]` is recorded as 0.155.
Under “normalised enrichment score”, `KGVKRKLFVEDSS [A9V]` is recorded as 0.274.
`KGVKRKLFAEDCS [S12C]`: “normalised enrichment score” 0.265.
For `KYVKRKLFAEDSS [G2Y]`, “normalised enrichment score” read -0.304.
Under “normalised enrichment score”, `KGVDRKLFAEDSS [K4D]` is recorded as 0.116.
Under “normalised enrichment score”, `KGVKRKEFAEDSS [L7E]` is recorded as 0.595.
`KFVKRKLFAEDSS [G2F]`: “normalised enrichment score” 0.906.

Mixed results
B11: cystatin C; sequence looked up; chain SSPGKPPRLVGGPMDASVEEEGVRRALDFAVGEYNKASNDMYHSRALQVVRARKQIVAGVNYFLDVELGRTTCTKTQPNLDNCPFHDQPHLKRKAFCSFQIYAVPWQGTMTLSKSTCQDA
With `B11 (cystatin C)` the inhibition was 73% (Cathepsin F (Homo sapiens, UniProt Q9UBX1); enzyme activity; 1 µM).

Repeated from above (sample 3):
Under “normalised enrichment score”, `KGVKHKLFAEDSS [R5H]` is recorded as 0.347.
For `KGVKNKLFAEDSS [R5N]`, “normalised enrichment score” read 0.149.
For `KGVKRFLFAEDSS [K6F]`, “normalised enrichment score” read -0.151.
For `KGVKRKLFAADSS [E10A]`, “normalised enrichment score” read 0.185.
